Published values pooled from the literature.
Lines come from different studies, so protocols differ. Positions count from the first letter of the parent shown. ± gives the spread as reported.
PRIMPOL: PRIMPOL 1-560 (Homo sapiens, UniProt Q96LW4)
UniProt Q96LW4, sequence (whole entry, looked up): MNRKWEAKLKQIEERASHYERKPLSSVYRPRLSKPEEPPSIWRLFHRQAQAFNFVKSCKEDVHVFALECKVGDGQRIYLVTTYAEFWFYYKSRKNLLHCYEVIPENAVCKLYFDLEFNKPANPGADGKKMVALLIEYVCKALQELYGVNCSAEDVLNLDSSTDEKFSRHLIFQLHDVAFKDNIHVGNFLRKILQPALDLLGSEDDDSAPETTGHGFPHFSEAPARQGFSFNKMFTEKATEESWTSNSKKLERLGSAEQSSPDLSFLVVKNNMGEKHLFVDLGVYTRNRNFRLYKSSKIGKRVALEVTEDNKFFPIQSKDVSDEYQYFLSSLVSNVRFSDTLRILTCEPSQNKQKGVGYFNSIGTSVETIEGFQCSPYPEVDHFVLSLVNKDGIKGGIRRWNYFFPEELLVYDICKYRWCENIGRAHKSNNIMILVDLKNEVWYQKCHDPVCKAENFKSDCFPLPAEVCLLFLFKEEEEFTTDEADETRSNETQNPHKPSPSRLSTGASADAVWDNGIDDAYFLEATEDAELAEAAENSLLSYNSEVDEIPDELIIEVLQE
GZF1: GZF1 250-711 (Homo sapiens, UniProt Q9H116)
UniProt Q9H116, sequence (whole entry, unmodified, looked up): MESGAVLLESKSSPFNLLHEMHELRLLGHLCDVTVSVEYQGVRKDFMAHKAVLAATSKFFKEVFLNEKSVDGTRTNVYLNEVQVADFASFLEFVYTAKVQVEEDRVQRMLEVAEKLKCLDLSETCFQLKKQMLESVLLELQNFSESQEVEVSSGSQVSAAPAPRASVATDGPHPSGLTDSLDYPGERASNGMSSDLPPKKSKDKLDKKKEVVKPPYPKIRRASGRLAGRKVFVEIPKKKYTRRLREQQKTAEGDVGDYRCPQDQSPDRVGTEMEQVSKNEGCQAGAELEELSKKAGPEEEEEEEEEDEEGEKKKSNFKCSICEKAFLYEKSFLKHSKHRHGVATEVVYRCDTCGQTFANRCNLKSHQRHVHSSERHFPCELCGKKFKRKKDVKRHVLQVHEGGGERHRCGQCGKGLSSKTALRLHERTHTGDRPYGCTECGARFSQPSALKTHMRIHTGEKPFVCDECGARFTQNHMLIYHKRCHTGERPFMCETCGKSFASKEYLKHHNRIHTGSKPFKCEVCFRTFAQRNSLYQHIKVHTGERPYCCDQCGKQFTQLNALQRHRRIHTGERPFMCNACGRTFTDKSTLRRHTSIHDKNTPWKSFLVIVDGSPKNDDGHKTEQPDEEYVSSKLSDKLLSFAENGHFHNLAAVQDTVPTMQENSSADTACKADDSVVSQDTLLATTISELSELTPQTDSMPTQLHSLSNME
P1: Fgfr1 (Mus musculus); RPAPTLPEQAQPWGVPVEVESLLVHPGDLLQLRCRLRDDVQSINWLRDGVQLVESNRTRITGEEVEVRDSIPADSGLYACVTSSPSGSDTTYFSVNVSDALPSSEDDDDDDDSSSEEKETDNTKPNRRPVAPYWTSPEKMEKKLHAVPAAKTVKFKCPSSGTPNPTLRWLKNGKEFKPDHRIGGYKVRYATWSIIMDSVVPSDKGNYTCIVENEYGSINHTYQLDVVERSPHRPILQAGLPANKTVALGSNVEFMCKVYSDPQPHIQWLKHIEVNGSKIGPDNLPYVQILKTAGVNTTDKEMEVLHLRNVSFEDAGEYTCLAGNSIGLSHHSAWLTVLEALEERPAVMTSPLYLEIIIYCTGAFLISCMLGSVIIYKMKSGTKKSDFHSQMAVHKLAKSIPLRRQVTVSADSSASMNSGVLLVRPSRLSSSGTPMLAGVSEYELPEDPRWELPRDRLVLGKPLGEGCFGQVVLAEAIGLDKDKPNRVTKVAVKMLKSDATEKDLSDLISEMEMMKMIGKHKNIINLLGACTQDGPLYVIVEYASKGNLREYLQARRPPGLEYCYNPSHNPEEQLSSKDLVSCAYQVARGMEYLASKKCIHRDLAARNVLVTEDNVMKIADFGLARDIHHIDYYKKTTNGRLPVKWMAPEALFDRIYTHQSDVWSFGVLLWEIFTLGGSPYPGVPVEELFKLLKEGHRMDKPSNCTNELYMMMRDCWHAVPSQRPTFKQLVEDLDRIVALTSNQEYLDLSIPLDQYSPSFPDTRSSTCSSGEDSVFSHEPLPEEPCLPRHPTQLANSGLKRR
P2: ZFP36L1 (Homo sapiens); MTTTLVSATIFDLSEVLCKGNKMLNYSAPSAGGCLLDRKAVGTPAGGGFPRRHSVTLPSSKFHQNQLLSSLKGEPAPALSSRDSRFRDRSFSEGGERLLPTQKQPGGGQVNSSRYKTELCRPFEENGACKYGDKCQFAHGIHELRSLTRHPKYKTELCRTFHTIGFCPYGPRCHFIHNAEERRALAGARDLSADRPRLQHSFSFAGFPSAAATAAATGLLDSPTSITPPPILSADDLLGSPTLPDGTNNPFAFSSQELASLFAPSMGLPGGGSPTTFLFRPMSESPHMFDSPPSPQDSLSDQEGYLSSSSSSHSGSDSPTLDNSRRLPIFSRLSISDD
UniProt Q96RJ3, sequence (whole entry, looked up): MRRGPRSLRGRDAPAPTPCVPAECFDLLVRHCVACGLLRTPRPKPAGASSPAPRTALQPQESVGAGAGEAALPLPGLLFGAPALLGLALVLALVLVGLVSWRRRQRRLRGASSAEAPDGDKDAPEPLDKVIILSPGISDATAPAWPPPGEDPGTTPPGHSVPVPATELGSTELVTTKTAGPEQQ
UniProt P14866, sequence (whole entry, looked up): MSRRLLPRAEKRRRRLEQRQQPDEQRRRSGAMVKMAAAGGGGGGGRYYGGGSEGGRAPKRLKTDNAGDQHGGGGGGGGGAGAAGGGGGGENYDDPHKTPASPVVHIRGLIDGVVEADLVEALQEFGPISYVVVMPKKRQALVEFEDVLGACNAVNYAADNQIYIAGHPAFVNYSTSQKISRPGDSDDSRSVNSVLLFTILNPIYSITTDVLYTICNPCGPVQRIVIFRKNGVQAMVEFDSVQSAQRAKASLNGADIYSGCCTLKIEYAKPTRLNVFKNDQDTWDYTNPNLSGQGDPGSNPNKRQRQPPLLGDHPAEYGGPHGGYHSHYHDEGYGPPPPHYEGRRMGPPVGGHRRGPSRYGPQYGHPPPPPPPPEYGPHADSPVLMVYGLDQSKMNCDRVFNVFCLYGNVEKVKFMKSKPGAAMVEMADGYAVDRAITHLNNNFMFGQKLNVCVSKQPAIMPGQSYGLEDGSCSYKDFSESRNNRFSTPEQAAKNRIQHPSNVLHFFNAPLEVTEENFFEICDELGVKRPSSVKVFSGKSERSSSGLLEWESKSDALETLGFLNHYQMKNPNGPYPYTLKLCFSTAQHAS
UniProt P49116, sequence (whole entry, looked up): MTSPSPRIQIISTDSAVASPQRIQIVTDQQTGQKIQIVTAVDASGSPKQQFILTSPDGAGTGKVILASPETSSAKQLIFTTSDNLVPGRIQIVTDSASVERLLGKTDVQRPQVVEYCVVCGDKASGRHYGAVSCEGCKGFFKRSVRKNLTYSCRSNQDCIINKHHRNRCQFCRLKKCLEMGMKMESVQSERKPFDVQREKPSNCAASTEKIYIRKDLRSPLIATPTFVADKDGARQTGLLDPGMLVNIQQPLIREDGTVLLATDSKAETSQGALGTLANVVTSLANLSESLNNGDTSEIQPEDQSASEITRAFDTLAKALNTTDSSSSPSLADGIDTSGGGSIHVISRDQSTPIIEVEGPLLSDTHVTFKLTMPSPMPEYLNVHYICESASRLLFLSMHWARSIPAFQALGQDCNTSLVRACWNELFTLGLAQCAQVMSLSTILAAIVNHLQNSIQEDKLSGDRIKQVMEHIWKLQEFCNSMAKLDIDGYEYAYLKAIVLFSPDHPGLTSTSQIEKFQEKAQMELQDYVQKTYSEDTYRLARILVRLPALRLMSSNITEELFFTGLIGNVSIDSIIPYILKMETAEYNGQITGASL

Substance	target or system	assay	system	setting	how to read	measurement	value
AACGUACUUUAAGGCCUAUUGAGGAAACUC (ssDNA; all dC Pp-dC; all dU Nap-dU)	PCSK9 fragment D374Y (Homo sapiens)	filter binding				Kd	0.0052 nM
TGFB1I1/GFP Y38F/Y60F	TNS1 (Mus musculus)	proximity ligation assay		read off a plot	higher = more proximity	PLA spots	15 spots/cell
DNA 1 TTTGGGGGAAGGATTC / DNA 2 TCACGGAATCCTTCCCCC (dsDNA; primer-template, 13 bp, 5 nt overhang)	PRIMPOL	fluorescence polarization	double-stranded DNA	with: Mg2+ 5 mM		Kd	910 ± 550 nM
TATTTGGAATGCGCCGCTATAAACCCGGCT (dsDNA)	GZF1	EMSA	double-stranded DNA, one strand shown			binding	binds
P1 L402A V408A Y442F Y709F Y745F Y755F	PIK3R2 (Mus musculus)	proximity ligation assay	embryo sections	read off a plot	higher = more proximity	signal	90 puncta
DNA 1 TTTGCCTCGAGCCAGCCGCAGACGCAC / DNA 2 TCGTCGGCGTCCTAGGTGCGTCTGCGGCTGGCTCGAGGC (dsDNA; primer-template, 24 bp, 15 nt overhang)	PRIMPOL	fluorescence polarization	double-stranded DNA	with: Mg2+ 5 mM		Kd	350 ± 160 nM
CACGCUCAUGCACACACCCACA (ssRNA)	HNRNPL 102-270 (Homo sapiens, UniProt P14866)	SPR	RNA			Kd	21.4 ± 9.3 nM
GGCAGAGGTCAAAAAAAGGTCAAACGT (dsDNA)	NR2C2 113-200 (Homo sapiens, UniProt P49116)	MST	double-stranded DNA, one strand shown			Kd	200 nM
UUUAUUCACAUUUUUGAAUUGA (structured RNA; 2'-F pyrimidines)	TFRC fragment (Homo sapiens)	SPR	folded RNA			Kd	0.022 nM
TATTTGGAATGCGCCGCCGTAAACCCGGCT (dsDNA)	GZF1	competition	double-stranded DNA, one strand shown			binding	no binding
GGGAGGACGAUGCGGGAGGCUCGGCUUAGUAAGUAAAGAUUGAGCCCGCAUGACGCUCCGAGUGCCAGACGACUCGCCCGA (structured RNA; 2'-F U and C)	TNFRSF13C 1-76 (Homo sapiens, UniProt Q96RJ3)	filter binding	folded RNA	with: tRNA 20 nM	higher = more RNA bound	relative binding	> 36 % RNA retained
P2 S334D	DCP1A (Homo sapiens)	co-IP	HEK293T, lysate	read off a plot	relative to: unchanged protein, higher = more binding	relative binding	190%
GATCTCTGCGCACGCGTCTATAGCCTACTG (dsDNA)	GZF1	competition	double-stranded DNA, one strand shown			binding	no binding
DNA 1 TTTGGGGGAAGGATTC / DNA 2 TCGCATCACGTCACGGAATCCTTCCCCC (dsDNA; primer-template, 13 bp, 15 nt overhang)	PRIMPOL	fluorescence polarization	double-stranded DNA	with: Mg2+ 5 mM		Kd	240 nM
GATCTCTGCGTGCGCCTCTATAGCCTACTG (dsDNA)	GZF1	competition	double-stranded DNA, one strand shown			binding	binds
ATCAGGCTGGATGGTAGCTCGGTCGGGGTGGGTGGGTTGGCAAGTCTGAT (DNA stem-loop; 8 bp stem, G:T mismatch, G-rich loop)	MET full-length, on A549 cells (Homo sapiens, UniProt P08581)	flow cytometry	A549	in cells, not purified		Kd	41.2 nM
DC2 K142A (Homo sapiens)	STT3A/OST STT3A complex (Homo sapiens)	BN-PAGE immunoblot			relative to: unchanged protein, higher = more complex	relative binding	35%

A few entries again:
Substance	target or system	assay	system	setting	how to read	measurement	value
CACGCUCAUGCACACACCCACA (ssRNA)	HNRNPL 102-270 (Homo sapiens, UniProt P14866)	SPR	RNA			Kd	21.4 ± 9.3 nM
GGCAGAGGTCAAAAAAAGGTCAAACGT (dsDNA)	NR2C2 113-200 (Homo sapiens, UniProt P49116)	MST	double-stranded DNA, one strand shown			Kd	200 nM
UUUAUUCACAUUUUUGAAUUGA (structured RNA; 2'-F pyrimidines)	TFRC fragment (Homo sapiens)	SPR	folded RNA			Kd	0.022 nM
